# Results pooled from the literature.
# Each numbered part is a random draw from the data of one study; scales do not carry over between parts.
# Chain of UniProt O75716 (whole entry, looked up): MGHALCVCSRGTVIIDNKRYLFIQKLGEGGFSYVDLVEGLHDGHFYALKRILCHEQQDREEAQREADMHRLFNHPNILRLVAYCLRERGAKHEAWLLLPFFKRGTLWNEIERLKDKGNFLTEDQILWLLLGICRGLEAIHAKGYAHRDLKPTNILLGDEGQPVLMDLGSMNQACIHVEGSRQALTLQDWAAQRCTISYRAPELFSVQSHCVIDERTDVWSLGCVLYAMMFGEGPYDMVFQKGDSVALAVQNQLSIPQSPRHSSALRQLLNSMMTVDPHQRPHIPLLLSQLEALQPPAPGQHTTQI
# Chain of UniProt P42336 (whole entry, unmodified, looked up): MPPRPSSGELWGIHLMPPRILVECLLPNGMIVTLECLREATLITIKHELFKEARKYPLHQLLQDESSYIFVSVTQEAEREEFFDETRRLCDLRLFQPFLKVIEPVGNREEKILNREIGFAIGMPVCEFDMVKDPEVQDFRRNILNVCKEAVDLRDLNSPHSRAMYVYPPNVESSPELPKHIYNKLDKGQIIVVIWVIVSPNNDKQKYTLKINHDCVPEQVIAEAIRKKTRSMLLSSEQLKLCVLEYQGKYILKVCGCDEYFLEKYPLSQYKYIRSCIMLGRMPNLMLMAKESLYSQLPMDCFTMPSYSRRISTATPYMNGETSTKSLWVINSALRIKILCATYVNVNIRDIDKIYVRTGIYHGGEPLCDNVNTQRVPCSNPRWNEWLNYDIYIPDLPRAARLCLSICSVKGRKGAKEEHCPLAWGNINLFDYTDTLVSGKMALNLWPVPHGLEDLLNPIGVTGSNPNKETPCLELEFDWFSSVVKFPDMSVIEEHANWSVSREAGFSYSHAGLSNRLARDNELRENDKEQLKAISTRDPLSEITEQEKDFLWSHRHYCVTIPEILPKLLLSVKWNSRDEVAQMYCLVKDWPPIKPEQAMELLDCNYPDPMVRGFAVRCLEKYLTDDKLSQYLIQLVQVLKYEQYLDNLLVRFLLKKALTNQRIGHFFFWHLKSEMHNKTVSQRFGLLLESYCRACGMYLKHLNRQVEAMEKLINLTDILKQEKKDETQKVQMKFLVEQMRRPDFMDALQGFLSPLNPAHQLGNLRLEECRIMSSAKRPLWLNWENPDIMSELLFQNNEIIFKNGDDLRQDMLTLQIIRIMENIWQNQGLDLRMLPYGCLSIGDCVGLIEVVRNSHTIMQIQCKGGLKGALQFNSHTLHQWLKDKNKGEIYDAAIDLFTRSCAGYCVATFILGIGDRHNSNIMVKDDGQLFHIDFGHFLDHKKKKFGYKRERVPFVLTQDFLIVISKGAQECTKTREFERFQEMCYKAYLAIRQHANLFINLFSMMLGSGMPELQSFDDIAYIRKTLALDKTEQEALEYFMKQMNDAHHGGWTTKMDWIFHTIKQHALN
# Chain of UniProt P00519 (whole entry, unmodified, looked up): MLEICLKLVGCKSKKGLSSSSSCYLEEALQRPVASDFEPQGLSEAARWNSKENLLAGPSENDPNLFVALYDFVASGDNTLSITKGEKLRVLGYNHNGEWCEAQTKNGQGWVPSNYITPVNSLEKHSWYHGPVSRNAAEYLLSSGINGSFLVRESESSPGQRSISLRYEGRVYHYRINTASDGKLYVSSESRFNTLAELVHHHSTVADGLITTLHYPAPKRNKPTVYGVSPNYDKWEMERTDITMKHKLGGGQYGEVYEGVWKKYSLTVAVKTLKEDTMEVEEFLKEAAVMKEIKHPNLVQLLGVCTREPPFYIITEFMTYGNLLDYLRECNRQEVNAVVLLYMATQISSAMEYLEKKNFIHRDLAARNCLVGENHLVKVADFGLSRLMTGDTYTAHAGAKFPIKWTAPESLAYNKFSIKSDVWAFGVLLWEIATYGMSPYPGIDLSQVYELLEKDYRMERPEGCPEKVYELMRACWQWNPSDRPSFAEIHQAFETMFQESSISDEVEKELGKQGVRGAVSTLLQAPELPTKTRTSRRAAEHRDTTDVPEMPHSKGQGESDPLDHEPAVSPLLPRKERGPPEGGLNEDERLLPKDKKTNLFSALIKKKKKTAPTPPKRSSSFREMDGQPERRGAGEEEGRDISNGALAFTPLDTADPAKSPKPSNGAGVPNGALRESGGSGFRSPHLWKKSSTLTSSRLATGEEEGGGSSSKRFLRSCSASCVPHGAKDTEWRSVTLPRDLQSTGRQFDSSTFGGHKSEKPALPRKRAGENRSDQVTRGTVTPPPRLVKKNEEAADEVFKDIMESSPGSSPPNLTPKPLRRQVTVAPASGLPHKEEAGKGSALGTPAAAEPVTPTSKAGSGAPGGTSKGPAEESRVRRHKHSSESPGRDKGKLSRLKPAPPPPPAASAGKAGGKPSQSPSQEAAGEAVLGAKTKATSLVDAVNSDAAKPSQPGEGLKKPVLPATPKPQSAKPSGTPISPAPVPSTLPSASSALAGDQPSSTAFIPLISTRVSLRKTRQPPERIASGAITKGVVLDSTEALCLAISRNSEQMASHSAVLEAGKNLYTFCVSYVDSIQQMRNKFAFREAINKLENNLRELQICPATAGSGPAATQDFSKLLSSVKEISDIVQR
# Chain of UniProt Q9UEE5 (whole entry, looked up): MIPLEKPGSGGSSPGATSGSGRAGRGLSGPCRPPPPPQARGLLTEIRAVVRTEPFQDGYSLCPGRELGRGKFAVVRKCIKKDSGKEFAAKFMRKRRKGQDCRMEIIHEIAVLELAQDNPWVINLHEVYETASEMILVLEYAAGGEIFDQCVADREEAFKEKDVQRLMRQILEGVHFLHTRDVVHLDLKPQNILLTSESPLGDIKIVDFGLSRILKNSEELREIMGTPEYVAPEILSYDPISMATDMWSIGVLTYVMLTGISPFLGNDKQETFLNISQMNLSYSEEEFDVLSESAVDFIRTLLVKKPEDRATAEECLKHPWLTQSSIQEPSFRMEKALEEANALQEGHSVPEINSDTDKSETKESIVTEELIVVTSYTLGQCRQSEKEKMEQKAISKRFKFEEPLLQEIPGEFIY
# Chain of UniProt O75582 (whole entry, looked up): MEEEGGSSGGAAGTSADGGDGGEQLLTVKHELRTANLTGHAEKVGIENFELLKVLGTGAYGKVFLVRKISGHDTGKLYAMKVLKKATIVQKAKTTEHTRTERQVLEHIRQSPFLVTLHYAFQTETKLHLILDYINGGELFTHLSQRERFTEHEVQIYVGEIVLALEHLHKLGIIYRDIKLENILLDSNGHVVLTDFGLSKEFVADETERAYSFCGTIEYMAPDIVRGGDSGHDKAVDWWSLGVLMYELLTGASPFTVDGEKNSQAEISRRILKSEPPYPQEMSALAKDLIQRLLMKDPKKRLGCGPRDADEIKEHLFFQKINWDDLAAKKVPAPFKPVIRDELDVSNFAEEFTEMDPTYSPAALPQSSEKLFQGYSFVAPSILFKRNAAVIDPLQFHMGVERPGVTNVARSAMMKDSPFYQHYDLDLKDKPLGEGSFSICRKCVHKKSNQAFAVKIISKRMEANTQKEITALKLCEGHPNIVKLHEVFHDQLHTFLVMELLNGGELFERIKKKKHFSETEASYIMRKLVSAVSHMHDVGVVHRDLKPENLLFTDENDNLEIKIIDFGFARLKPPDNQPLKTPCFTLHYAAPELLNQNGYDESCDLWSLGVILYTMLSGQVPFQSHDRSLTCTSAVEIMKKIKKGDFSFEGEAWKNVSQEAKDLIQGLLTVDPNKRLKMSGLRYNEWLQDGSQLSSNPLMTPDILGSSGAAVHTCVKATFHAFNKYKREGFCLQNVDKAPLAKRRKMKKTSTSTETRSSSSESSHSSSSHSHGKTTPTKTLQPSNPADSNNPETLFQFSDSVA
# Chain of UniProt O43781 (whole entry, looked up): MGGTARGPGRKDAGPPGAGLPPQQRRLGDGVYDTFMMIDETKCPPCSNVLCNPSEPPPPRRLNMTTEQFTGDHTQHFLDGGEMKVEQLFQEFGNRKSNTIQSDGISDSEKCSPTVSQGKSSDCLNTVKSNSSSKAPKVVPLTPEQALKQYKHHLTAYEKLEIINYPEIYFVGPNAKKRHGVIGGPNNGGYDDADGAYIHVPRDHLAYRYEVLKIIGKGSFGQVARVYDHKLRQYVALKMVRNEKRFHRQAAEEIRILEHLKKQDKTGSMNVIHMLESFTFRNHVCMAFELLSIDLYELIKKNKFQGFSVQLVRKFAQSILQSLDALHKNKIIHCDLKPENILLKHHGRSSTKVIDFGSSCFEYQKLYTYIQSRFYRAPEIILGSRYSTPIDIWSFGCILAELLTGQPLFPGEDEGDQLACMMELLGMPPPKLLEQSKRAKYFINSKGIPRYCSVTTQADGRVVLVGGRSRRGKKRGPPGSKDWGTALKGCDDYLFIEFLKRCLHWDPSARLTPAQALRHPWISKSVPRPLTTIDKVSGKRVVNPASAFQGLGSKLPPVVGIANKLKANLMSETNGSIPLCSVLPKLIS

# Study 1
# Target: Calcium/calmodulin-dependent protein kinase type II subunit alpha (CAMK2A, Homo sapiens, UniProt Q9UQM7)
# Chain of UniProt Q9UQM7 (whole entry, looked up): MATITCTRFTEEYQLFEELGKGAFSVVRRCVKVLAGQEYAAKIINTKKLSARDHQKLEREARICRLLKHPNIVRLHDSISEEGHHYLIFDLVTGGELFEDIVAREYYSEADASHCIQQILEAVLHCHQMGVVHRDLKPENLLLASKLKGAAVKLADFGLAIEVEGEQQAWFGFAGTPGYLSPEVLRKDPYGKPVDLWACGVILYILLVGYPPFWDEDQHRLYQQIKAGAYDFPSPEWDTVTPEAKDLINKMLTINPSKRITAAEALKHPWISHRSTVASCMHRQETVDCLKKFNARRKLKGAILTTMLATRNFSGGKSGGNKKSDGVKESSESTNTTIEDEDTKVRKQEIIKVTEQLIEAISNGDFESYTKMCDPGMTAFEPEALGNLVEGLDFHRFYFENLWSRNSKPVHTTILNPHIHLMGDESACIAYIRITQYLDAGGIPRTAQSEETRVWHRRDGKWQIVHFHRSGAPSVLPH
# Read-out: enzyme activity
# Mode: inhibitor
# Concentration: 10 µM
SMILES,inhibition
COc1ccc(-c2coc3c([C@@H]4O[C@H](CO)[C@@H](O)[C@H](O)[C@H]4O)c(O)ccc3c2=O)cc1,-7%
C[C@@H]1O[C@@H](OC[C@H]2O[C@@H](Oc3c(-c4ccc(O)cc4)oc4cc(O)cc(O)c4c3=O)[C@H](O)[C@@H](O)[C@@H]2O)[C@H](O)[C@H](O)[C@H]1O,-28%
CCc1nc(N)nc(N)c1-c1ccc(Cl)cc1,-4%
C[N+](C)(C)CCCC[C@H](N)C(=O)O,-20%
C[C@H](CCC(=O)O)[C@H]1CC[C@H]2[C@@H]3C[C@H](O)[C@@H]4C[C@H](O)CC[C@]4(C)[C@H]3CC[C@]12C,-1%
CCC(C)(Oc1ccc(C2(c3ccc(OC(C)(CC)C(=O)O)cc3)CCCCC2)cc1)C(=O)O (centres unmarked),-7%

# Study 2
# SMILES: CS(=O)(=O)CCNCc1ccc(-c2ccc3ncnc(Nc4ccc(OCc5cccc(F)c5)c(Cl)c4)c3c2)o1
# Read-out: enzyme activity
# Mode: inhibitor
# Concentration: 0.5 µM
# Baseline: control
target,remaining activity
"Homeodomain-interacting protein kinase 4 (HIPK4, Homo sapiens, UniProt Q8NE63)",108%
"Tyrosine-protein kinase Blk (BLK, Homo sapiens, UniProt P51451)",95.9%
"Cyclin-dependent kinase 1, with cyclin B (CDK1, Homo sapiens, UniProt P06493)",100%
"Dual specificity tyrosine-phosphorylation-regulated kinase 3 (DYRK3, Homo sapiens, UniProt O43781)",90.2%
"Ribosomal protein S6 kinase alpha-5 (RPS6KA5, Homo sapiens, UniProt O75582)",98.3%
"Ephrin type-A receptor 4 (EPHA4, Homo sapiens, UniProt P54764)",101%
"Tyrosine-protein kinase ABL1 (ABL1, Homo sapiens, UniProt P00519)",96.4%
"MAP kinase-activated protein kinase 3 (MAPKAPK3, Homo sapiens, UniProt Q16644)",103%
"Testis-specific serine/threonine-protein kinase 2 (TSSK2, Homo sapiens, UniProt Q96PF2)",89.9%
"cAMP-dependent protein kinase catalytic subunit gamma (PRKACG, Homo sapiens, UniProt P22612)",110%
"Ephrin type-B receptor 4 (EPHB4, Homo sapiens, UniProt P54760)",94.1%
"Tyrosine-protein kinase Srms (SRMS, Homo sapiens, UniProt Q9H3Y6)",97.9%
"Phosphorylase b kinase gamma catalytic chain, skeletal muscle/heart isoform (PHKG1, Homo sapiens, UniProt Q16816)",95.7%
"Homeodomain-interacting protein kinase 2 (HIPK2, Homo sapiens, UniProt Q9H2X6)",104%
"Serine/threonine-protein kinase 16 (STK16, Homo sapiens, UniProt O75716)",97.1%
"Cyclin-dependent kinase 6, with cyclin D3 (CDK6, Homo sapiens, UniProt Q00534)",120%
"Serine/threonine-protein kinase 17A (STK17A, Homo sapiens, UniProt Q9UEE5)",89.7%
"Serine/threonine-protein kinase WNK3 (WNK3, Homo sapiens, UniProt Q9BYP7)",104%

# Study 3
# SMILES: CC(=O)N1CCC(c2ccc(C(=O)NC(=N)N)cc2C(F)(F)F)CC1
# Technique: competition with immobilised ligand
# Concentration: 1 µM
target,test,remaining binding [%]
"Casein kinase I isoform delta (CSNK1D, Homo sapiens, UniProt P48730)",cell-free assay,100
"Serine/threonine-protein kinase MRCK beta (CDC42BPB, Homo sapiens, UniProt Q9Y5S2)",cell-free assay,100
"Phosphatidylinositol 4,5-bisphosphate 3-kinase catalytic subunit alpha isoform (PIK3CA, Homo sapiens, UniProt P42336, Q546K)",cell-free assay,100
"Casein kinase II subunit alpha' (CSNK2A2, Homo sapiens, UniProt P19784)",cell-free assay,100
"Tyrosine-protein kinase TXK (TXK, Homo sapiens, UniProt P42681)",binding,100
"Tyrosine-protein kinase ABL1, non-phosphorylated (ABL1, Homo sapiens, UniProt P00519, F317L)",cell-free assay,100
"Dual specificity protein kinase TTK (TTK, Homo sapiens, UniProt P33981)",cell-free assay,100
"Serine/threonine-protein kinase TAO3 (TAOK3, Homo sapiens, UniProt Q9H2K8)",cell-free assay,86
"Epidermal growth factor receptor (EGFR, Homo sapiens, UniProt P00533, L858R)",cell-free assay,100
"Mitogen-activated protein kinase kinase kinase 4 (MAP3K4, Homo sapiens, UniProt Q9Y6R4)",cell-free assay,98
"Wee1-like protein kinase (WEE1, Homo sapiens, UniProt P30291)",cell-free assay,100
"Myosin light chain kinase family member 4 (MYLK4, Homo sapiens, UniProt Q86YV6)",cell-free assay,100
"Serine/threonine-protein kinase 16 (STK16, Homo sapiens, UniProt O75716)",cell-free assay,100
"Ephrin type-A receptor 7 (EPHA7, Homo sapiens, UniProt Q15375)",cell-free assay,100
"Myosin light chain kinase 2, skeletal/cardiac muscle (MYLK2, Homo sapiens, UniProt Q9H1R3)",cell-free assay,85
"Phosphatidylinositol 4,5-bisphosphate 3-kinase catalytic subunit alpha isoform (PIK3CA, Homo sapiens, UniProt P42336, E542K)",cell-free assay,82
"Cyclin-dependent kinase 13 (CDK13, Homo sapiens, UniProt Q14004)",cell-free assay,100
"Serine/threonine-protein kinase Nek3 (NEK3, Homo sapiens, UniProt P51956)",cell-free assay,79

# Study 4
# Sample: 1,9-decadiene/PBS
# pH: 7.4
Compound,logD
CC(C)C[C@@H]1NC(=O)[C@H](CC(C)C)NC(=O)[C@@H](C(C)C)NC(=O)[C@H](C)NC(=O)[C@@H](Cc2cscn2)NC(=O)[C@@H](CC(C)C)NC(=O)[C@H](C)NC1=O,-1.72
CC(C)C[C@@H]1NC(=O)[C@H](C(C)C)NC(=O)[C@H](C)NC(=O)[C@H](CCC(=O)N2CCCC2)NC(=O)[C@@H](CCC(=O)N2CCCC2)NC(=O)[C@H](CC(C)C)NC(=O)[C@@H](CC(C)C)NC1=O,-2.47
CC(C)C[C@@H]1NC(=O)[C@H](CC(C)C)NC(=O)[C@@H](C(C)C)NC(=O)[C@H](C(C)C)NC(=O)[C@@H](Cc2cscn2)NC(=O)[C@H](Cc2cscn2)NC(=O)[C@H](CCC(=O)N2CCCC2)NC1=O,-2.28
CC(C)C[C@@H]1NC(=O)[C@H](C)NC(=O)[C@H](CCC(=O)N2CCCC2)NC(=O)[C@H](CC(C)C)NC(=O)[C@@H](CCC(=O)N2CCCC2)NC(=O)[C@H](CC(C)C)NC(=O)[C@@H](CC(C)C)NC1=O,-1.94
CC(C)C[C@@H]1NC(=O)[C@H](C)NC(=O)[C@H](C)NC(=O)[C@@H](CC(C)C)NC(=O)[C@H](C(C)C)NC(=O)[C@H](CC(C)C)NC(=O)[C@@H](CC(C)C)NC1=O,-0.54
CC(C)C[C@@H]1NC(=O)[C@@H](C)NC(=O)[C@@H](CC(C)C)NC(=O)[C@@H](CC(C)C)NC(=O)[C@H](C(C)C)NC(=O)[C@H](CC(C)C)NC(=O)[C@@H](CC(C)C)NC1=O,1.13
CC(C)C[C@@H]1NC(=O)[C@H](CC(C)C)NC(=O)[C@@H](CC(C)C)NC(=O)[C@H](C)NC(=O)[C@H](C)NC(=O)[C@@H](CC(C)C)NC(=O)[C@H](C)NC1=O,-1.31
CC(C)C[C@@H]1NC(=O)[C@H](CC(C)C)NC(=O)[C@@H](CC(C)C)NC(=O)[C@@H](C)NC(=O)[C@H](C)NC(=O)[C@H](Cc2cscn2)NC(=O)[C@H](CCC(=O)N2CCCC2)NC1=O,-2.95

# Excerpt of the above (study 4):
Compound,logD
CC(C)C[C@@H]1NC(=O)[C@H](C(C)C)NC(=O)[C@H](C)NC(=O)[C@H](CCC(=O)N2CCCC2)NC(=O)[C@@H](CCC(=O)N2CCCC2)NC(=O)[C@H](CC(C)C)NC(=O)[C@@H](CC(C)C)NC1=O,-2.47
CC(C)C[C@@H]1NC(=O)[C@H](CC(C)C)NC(=O)[C@@H](C(C)C)NC(=O)[C@H](C(C)C)NC(=O)[C@@H](Cc2cscn2)NC(=O)[C@H](Cc2cscn2)NC(=O)[C@H](CCC(=O)N2CCCC2)NC1=O,-2.28
CC(C)C[C@@H]1NC(=O)[C@H](C)NC(=O)[C@H](CCC(=O)N2CCCC2)NC(=O)[C@H](CC(C)C)NC(=O)[C@@H](CCC(=O)N2CCCC2)NC(=O)[C@H](CC(C)C)NC(=O)[C@@H](CC(C)C)NC1=O,-1.94
CC(C)C[C@@H]1NC(=O)[C@H](C)NC(=O)[C@H](C)NC(=O)[C@@H](CC(C)C)NC(=O)[C@H](C(C)C)NC(=O)[C@H](CC(C)C)NC(=O)[C@@H](CC(C)C)NC1=O,-0.54
CC(C)C[C@@H]1NC(=O)[C@@H](C)NC(=O)[C@@H](CC(C)C)NC(=O)[C@@H](CC(C)C)NC(=O)[C@H](C(C)C)NC(=O)[C@H](CC(C)C)NC(=O)[C@@H](CC(C)C)NC1=O,1.13
CC(C)C[C@@H]1NC(=O)[C@H](CC(C)C)NC(=O)[C@@H](CC(C)C)NC(=O)[C@H](C)NC(=O)[C@H](C)NC(=O)[C@@H](CC(C)C)NC(=O)[C@H](C)NC1=O,-1.31
